Measured values collected from several papers.
A part holds a random share of what one study measured.

Sample 1
Target: RNA binding protein fox-1 homolog 2, RRM domain, GST-SBP tag (RBFOX2, Homo sapiens, UniProt O43251-10, residues 100-194)
Method: RNA Bind-n-Seq
Form: RNA
Sample: in vitro
Concentration: 365 nM
Setting: natural RNA segment, single round, ends assumed
Reference: no-protein control
Reading: higher = stronger binding
Shared flanks, not repeated: GGGAGUUCUACAGUCCGACGAUC … UGGAAUUCUCGGGUGCCAA
Target sequence (chain): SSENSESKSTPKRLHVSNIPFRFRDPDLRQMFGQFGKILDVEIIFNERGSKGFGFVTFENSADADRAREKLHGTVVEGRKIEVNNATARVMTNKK
`CUCGUCUUUAGAAAGCUGUUUGAAUUCCCCCCGCCCCCAGUUUGGACCGUGUAGAUAUAACUGGAUAUACGGAUUUUUCUCUUUGUGCAGGCUUCUUAUGCCGUUGGUAU` — result for “RBNS enrichment (R)”: 0.402.
`CUUGUCCCCUGCUCUCUCUUCUACCUACCUGCCUACCCCUGCAGAUCCUGUGGGCAGACACCUUACUCUGGAGCCAUUCCACCUGCCUGUCACCUGGGUCUGAGAAGCCU`: “RBNS enrichment (R)” 0.641.
Under “RBNS enrichment (R)”, `AUGGAACUAUGGGUUCUCUUCGCAAAGCCAAAGGAUAGUGUUUAACAAGCCAGCUGGCUUAUGCUGGUUCUCAGCUGUUUAAAAAAAAAAAAAAAAAGGAAUAGAAACAG` is recorded as 0.46.
`UGCCCCCUCUCCUCCUUGGCACUGGCGGCCUCCUUGCCUCCCUUCCACCCGUGCUGCCAUCCCGUGCCUGUCGUGUUGGUUCUUCACACGUGCUCUGUUCUCGGGGUUGU` — result for “RBNS enrichment (R)”: 0.509.
Under “RBNS enrichment (R)”, `AUGUAUAGGCUGUGUUGGUUUAUGGAGACAAGUUGCAUCAAUGAAUUCACCUAGCAUAGGCUCUUUGAAAUGUCCUCUGUUUGAUAAAAAACAAUCCUGGGUACGUAUGU` is recorded as 1.78.
`GGAAGCUUGGGUUCAAGCGUCACUCAUCUGUACAUAGUUGUAACUCCCAUGUGGAGUAUCAGUCGCUCACAGGACUUGGAUCUGAAGCACAGUAAACGCAAGAGGGGAUU`: “RBNS enrichment (R)” 0.505.
`CAAAUGACUGCACUAUAUGUAUGCAUACGGCCACUUUUGAUUGCUGCGCCCCUUCUGAGUAGUCUUUGACAAUGUGUUGUGUUCCCCGAUGUCGACUUGAUUUCCUUUUA`: “RBNS enrichment (R)” 0.607.
`UAGUAGUAACUCUAAGAACCCUUAACUUACAAACAACUUUGUCUCCUCUUAGACAAUAUUCAUUAAAUCUGAGGACACAGUUUGACAGUAGUUCAGAUUCUUGCAUGAGC`: “RBNS enrichment (R)” 2.36.
`AGCCAUCACCUUGGACCACCAAGCCUUGAAUGGUGUUGCCAGUUGGCUCCUCCUGGGGAGGACUUUUGUCACUCUUCAGCCAAGAAGCAGCUCUGUGCACCUGUGUGUGA`: “RBNS enrichment (R)” 0.401.
`GUUUUAGUAUUUUCUACCUCUUAAUAAGCACCAUAUUUUAGAUCUUGUAUAAAAAGUUGCCAUCUGCCUUAUAGACAAAUGUAGAGAAUUGAUGUUCUUGCUUUGUGUUG`: “RBNS enrichment (R)” 0.777.
`CAGGGAGGGAAUGAUAUAAUUUUCAUGACAAUGUCAUGUGAUGAUAGAAUUUCUCCAUUGAUGAAUCUCUAGUAUGUGUGUAUACUUUAUUUACCCAUACGUAUAUUUUA`: “RBNS enrichment (R)” 0.318.
`GGAGGCCCCCAGGGGUGGUAGAGGCUGGAAGGAAGCCACAUCAGGAGGACGCCACUCCGGCCCUUCACCCUUGCCAAGUGAGCUGCUCACAGUGUGGUCAGGGCUGCGCG` — result for “RBNS enrichment (R)”: 0.263.

Sample 2
Target: Interferon regulatory factor 5, full length, phosphomimetic (IRF5, Homo sapiens, UniProt Q13568-2, residues 1-514, S451D/S453D/S456D/S462D)
Method: protein-binding microarray
Form: double-stranded DNA, one strand shown
Sample: in vitro
Concentration: 940 nM top
Setting: 60-bp whole probe
Added: salmon DNA 0.4 mg/ml
Reference: random background probes
Reading: higher = stronger binding
Shared flanks, not repeated: GCCTAGCAC … GTCTTGATTCGCTTGACGCTGCTG
`ATCATTTTAGTTTTCATTATGTGCTAG`: “fitted relative affinity” 2.33 z-score.
`GACGGTCTCGGTTGCGGGACGTGCTAG`: “fitted relative affinity” 4.3 z-score.
`TTAGATATCGGGTTACGATTAGTGCTA` — result for “fitted relative affinity”: 0.457 z-score.
`GACGGTTTCGGGACCGGGGACGTGCTA`: “fitted relative affinity” 7.25 z-score.
For `TTAGGTATAGGTCTCGGTTAGTGCTAG`, “fitted relative affinity” read 1.76 z-score.
`CTCGTTTACATTTTCCAAATGTGCTAG` — result for “fitted relative affinity”: 0.463 z-score.
For `TTAGGACTAGGGACTGGGTTAGTGCTA`, “fitted relative affinity” read -0.756 z-score.
`GACGGTATCGACTTTCGGAACGTGCTA`: “fitted relative affinity” 4.74 z-score.
`GACGGTCTTCTTCTCCTGACGTGCTAG` — result for “fitted relative affinity”: 0.777 z-score.
Under “fitted relative affinity”, `CTGTTTTTGCTTTCCTTTATGTGCTAG` is recorded as 2.49 z-score.
`GTAGGTCTCCTACTGCTTTAGTGCTAG`: “fitted relative affinity” -0.422 z-score.
`GACGGTATCGGTCTCGGGCCGTGCTAG`: “fitted relative affinity” 8.31 z-score.
`TCACCTTTCTCTTGGAGACTGTGCTAG` — result for “fitted relative affinity”: 0.79 z-score.
`TTAGGACTGGGGCTGGGTTAGTGCTAG`: “fitted relative affinity” -0.368 z-score.
For `TTAGGTATCGGGTTTCGCTTAGTGCTA`, “fitted relative affinity” read 6.72 z-score.
Under “fitted relative affinity”, `TTAGGACTCCTTCTCCTTTAGTGCTAG` is recorded as 0.0169 z-score.
`TTAGGTATCGGGACAGGGTTAGTGCTA` — result for “fitted relative affinity”: 4.34 z-score.
Under “fitted relative affinity”, `TCACTTTCACTTCTCCCACTGTGCTAG` is recorded as 6.21 z-score.
For `TTAGGTCTCCTTCTCCTTTAGTGCTAG`, “fitted relative affinity” read 0.39 z-score.
`TTAGGTTTCCTTTCCCTTTTGTGCTAG` — result for “fitted relative affinity”: 2.11 z-score.
For `AGTTTATTTATTTTTACATTGTGCTAG`, “fitted relative affinity” read 0.816 z-score.
Under “fitted relative affinity”, `GACGGTATCATTCTCCTGACGTGCTAG` is recorded as 3.04 z-score.
Under “fitted relative affinity”, `GACGATTTTGGGTATCGAGACGTGCTA` is recorded as 1.32 z-score.
Under “fitted relative affinity”, `GACGATCTCAGTTTCGTGACGTGCTAG` is recorded as 1.98 z-score.

Sample 3
Target: Ras GTPase-activating protein-binding protein 1, full length (G3BP1, Homo sapiens, UniProt Q13283)
UniProt Q13283, sequence (whole entry, looked up): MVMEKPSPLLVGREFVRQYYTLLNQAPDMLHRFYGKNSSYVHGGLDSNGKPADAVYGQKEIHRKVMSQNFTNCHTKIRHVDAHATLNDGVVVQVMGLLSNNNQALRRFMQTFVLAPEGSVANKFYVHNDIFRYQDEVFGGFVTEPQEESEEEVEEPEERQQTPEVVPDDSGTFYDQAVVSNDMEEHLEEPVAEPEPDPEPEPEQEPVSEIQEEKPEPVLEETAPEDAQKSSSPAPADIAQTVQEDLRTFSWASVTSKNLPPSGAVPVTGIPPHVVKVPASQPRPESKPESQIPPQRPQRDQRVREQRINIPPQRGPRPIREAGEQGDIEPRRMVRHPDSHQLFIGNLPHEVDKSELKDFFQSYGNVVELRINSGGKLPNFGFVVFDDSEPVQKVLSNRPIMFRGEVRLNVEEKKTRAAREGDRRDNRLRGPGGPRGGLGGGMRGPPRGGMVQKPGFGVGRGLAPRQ
Method: RNA Bind-n-Seq
Form: RNA
Sample: in vitro
Concentration: 200 nM
Setting: whole 134-nt RNA, ends assumed
Added: 150 mM LiCl
Reference: input library
Reading: higher = stronger binding
Each molecule: 7-deaza-guanosine replaces G
Shared flanks, not repeated: GGGAGUUCUACAGUCCGACGAUC … UGGAAUUCUCGGGUGUCAAGG
For `GAAAAUUUCUCAGUUCUUAAGAAUGCUUGCUGUGGGUAUAGUGCAGGUAUAUUGAAAGGAAUUUUUUUCUUGCAGCGGGAAAGAGACAUG`, the log2 enrichment was -2.62.
The log2 enrichment of `CUGUGCUACACAUCGUAUGUACCGAAUCGGGUUUUUUUGGGGUUUUUUUGGUUUUUUUGGGGAAAGUAUUAUGUUACGCCGUUCGGAUCU` is reported as 1.4.
The log2 enrichment of `AAGUCCUGUGCUACACAUCGUAUGUACCGAAUCAAAUUUAAACCCAAACCCCCAAAAAAGUAUUAUGUUACGCCGUUCGGAUCUGCACUU` is reported as 1.19.
The log2 enrichment of `CACAGACAACACGCACCCACACAGACACAGAGGGAAGGGGUUGGGAUGGGGACAGGGUGCUCAGCAGGGCGGGGUAGGACCCCAGCCCCU` is reported as 0.487.
`GGGGUGAGCACAGACAGGAUCGCAGGGAGAGGCCGUAUUAAUUAGCCUGGCUCCCCAGGUUCUGGAACAGCUUUUUGUCCUGUACCCAGU` has a log2 enrichment of 0.751.
`GUCCUGUGCUACACAUCGUAUGUACCGAAUCGGAAAAAGGGGAAAAAGGAAAAAGGGGAAAGUAUUAUGUUACGCCGUUCGGAUCUGCAC` gave a log2 enrichment of 0.0686.
The log2 enrichment of `AAGUCCUGUGCUACACAUCGUAUGUACCGAAUCAAAUUUAAACCCAAAUUUUUAAAAAAGUAUUAUGUUACGCCGUUCGGAUCUGCACUU` is reported as -1.11.
The log2 enrichment of `AGUCCUGUGCUACACAUCGUAUGUACCGAAUCGUGUGUGUGUGUGUGUGUGUGUGUGUAAAGUAUUAUGUUACGCCGUUCGGAUCUGCAC` is reported as -0.632.
For `UGUGCUACACAUCGUAUGUACCGAAUCGGGGUUUUUUUGGGUUUUUUUGGGUUUUUUUGGGGAAAGUAUUAUGUUACGCCGUUCGGAUCU`, the log2 enrichment was 1.7.
With `CACAGACAACACGCACCCACACAGACACAGAGGGAAGGGGUUGGGAUGGGGACAGGGUGCACAGCAGGGCGGGGUAGGACUCCAGCCCCU` the log2 enrichment was -1.63.
The log2 enrichment of `UACUCUUUGAUUUAUCAAAUGUGUUCAGUUGGAGAAUCGUCCUCAGGAAAGGCUUCAAGGAGCCUUGCACAGCAUAUUCCUGGCCCUGGU` is reported as -1.5.

Sample 4
Target: Histone acetyltransferase KAT6A, winged helix 1, GST fusion (KAT6A, Homo sapiens, UniProt Q92794, residues 1-85)
Method: protein binding microarray
Form: double-stranded DNA, one strand shown
Sample: in vitro
Concentration: not given
Setting: 8-mer, flanks averaged, mean of 2 arrays, mostly near background
Reference: not given
Reading: higher = stronger binding
Construct (chain): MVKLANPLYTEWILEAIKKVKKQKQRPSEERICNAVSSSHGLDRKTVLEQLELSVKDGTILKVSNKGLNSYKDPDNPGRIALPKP
`AGAGGTTA` has an E-score of -0.0462.
With `GAGGACGA` the E-score was -0.122.
With `AAATCCAC` the E-score was -0.287.
For `CTGTAGAC`, the E-score was 0.0422.
The E-score of `AACCATCA` is reported as -0.0892.
With `AGAACGAG` the E-score was -0.152.
The E-score of `CCGATTCA` is reported as -0.201.
`ACAGATGT` has an E-score of -0.111.
The E-score of `ACTTCCCA` is reported as -0.201.
`AACTTCGG` has an E-score of -0.128.
With `CATCAACA` the E-score was 0.0591.
For `CCTTACAG`, the E-score was -0.0574.
`GACAACTA` gave an E-score of -0.155.
`ATACATTA` gave an E-score of -0.0647.
With `GCAGGACA` the E-score was -0.111.
The E-score of `CTAGGCTC` is reported as -0.135.
`AATAACAA` has an E-score of -0.256.
With `CATGAAGG` the E-score was -0.116.
`CACGTCGC` gave an E-score of 0.253.
With `TGGTGGAA` the E-score was -0.323.
For `CTGCTGGA`, the E-score was -0.19.
The E-score of `CACTGTCG` is reported as -0.0493.
With `GCTAAGAA` the E-score was -0.257.
`AGTATCTC` has an E-score of -0.0491.
`AGAAAGAC` has an E-score of -0.0966.

Some of these lines once more (sample 4):
The E-score of `AACCATCA` is reported as -0.0892.
With `AGAACGAG` the E-score was -0.152.
For `CCTTACAG`, the E-score was -0.0574.
The E-score of `CTAGGCTC` is reported as -0.135.
The E-score of `ACTTCCCA` is reported as -0.201.
For `CTGCTGGA`, the E-score was -0.19.
With `AAATCCAC` the E-score was -0.287.
`AGAGGTTA` has an E-score of -0.0462.
`AATAACAA` has an E-score of -0.256.
For `CTGTAGAC`, the E-score was 0.0422.
